Assay results from different studies.
Compare with care: the assays were run in different laboratories. Numbers after ± are the reported error.
Fibroin-modulator-binding protein-1: Fibroin-modulator-binding protein-1 99-193 (Bombyx mori, UniProt Q5FBS0)
T1: Yku70/Yku80 (Saccharomyces cerevisiae); chain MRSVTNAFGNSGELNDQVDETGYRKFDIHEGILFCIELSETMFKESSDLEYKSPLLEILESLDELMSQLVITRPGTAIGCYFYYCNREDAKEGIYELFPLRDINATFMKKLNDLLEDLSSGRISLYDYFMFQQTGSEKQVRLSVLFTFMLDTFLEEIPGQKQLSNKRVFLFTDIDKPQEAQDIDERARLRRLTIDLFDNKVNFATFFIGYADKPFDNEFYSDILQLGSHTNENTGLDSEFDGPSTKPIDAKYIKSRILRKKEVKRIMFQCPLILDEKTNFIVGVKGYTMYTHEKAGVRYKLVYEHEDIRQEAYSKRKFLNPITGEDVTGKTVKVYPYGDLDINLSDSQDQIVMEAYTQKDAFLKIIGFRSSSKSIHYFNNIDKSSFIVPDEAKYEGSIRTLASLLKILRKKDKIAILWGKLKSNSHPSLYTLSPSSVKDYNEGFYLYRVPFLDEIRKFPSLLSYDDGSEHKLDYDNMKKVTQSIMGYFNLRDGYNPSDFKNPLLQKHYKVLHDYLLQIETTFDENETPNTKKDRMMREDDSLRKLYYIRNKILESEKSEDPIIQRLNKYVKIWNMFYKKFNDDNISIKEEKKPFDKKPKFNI; chain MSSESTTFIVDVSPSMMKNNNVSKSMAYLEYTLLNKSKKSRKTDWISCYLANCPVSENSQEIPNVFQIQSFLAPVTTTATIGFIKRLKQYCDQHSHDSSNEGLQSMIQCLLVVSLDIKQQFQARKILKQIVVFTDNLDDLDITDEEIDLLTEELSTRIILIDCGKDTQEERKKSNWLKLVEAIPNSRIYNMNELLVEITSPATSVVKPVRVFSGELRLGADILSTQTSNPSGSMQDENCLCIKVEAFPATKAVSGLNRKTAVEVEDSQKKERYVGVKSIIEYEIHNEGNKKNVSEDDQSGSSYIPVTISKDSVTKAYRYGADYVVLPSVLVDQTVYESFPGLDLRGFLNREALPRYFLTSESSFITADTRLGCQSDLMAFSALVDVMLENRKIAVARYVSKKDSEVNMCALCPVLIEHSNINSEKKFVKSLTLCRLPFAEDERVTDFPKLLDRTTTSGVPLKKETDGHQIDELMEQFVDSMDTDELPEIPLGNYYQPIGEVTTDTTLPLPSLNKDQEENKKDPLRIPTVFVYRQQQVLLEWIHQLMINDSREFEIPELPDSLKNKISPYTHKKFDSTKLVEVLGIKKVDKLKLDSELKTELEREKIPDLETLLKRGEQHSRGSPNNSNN
UniProt Q6R0H1, sequence (whole entry, looked up): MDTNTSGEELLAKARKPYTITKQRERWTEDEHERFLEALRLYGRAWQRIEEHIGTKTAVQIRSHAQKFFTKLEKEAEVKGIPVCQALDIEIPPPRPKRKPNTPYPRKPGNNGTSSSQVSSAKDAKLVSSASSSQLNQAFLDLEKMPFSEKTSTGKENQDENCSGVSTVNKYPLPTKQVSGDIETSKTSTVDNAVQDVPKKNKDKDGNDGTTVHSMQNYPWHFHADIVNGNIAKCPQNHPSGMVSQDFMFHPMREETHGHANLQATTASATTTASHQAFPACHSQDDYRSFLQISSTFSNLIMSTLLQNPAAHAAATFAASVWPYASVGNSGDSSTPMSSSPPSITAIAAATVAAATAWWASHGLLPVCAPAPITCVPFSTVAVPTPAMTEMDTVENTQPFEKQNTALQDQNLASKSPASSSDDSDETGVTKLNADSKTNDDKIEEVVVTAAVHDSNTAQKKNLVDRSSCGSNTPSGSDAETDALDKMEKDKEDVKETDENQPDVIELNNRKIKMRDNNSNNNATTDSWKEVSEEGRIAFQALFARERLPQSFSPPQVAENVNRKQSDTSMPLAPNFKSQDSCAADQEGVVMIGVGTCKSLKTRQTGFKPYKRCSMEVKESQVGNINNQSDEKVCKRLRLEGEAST
UniProt Q9SM50, sequence (whole entry, looked up): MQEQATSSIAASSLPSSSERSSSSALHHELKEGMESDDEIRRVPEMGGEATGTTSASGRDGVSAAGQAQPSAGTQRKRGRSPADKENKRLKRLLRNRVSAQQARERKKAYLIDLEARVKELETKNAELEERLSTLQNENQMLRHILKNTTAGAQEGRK
UniProt P55265, sequence (whole entry, looked up): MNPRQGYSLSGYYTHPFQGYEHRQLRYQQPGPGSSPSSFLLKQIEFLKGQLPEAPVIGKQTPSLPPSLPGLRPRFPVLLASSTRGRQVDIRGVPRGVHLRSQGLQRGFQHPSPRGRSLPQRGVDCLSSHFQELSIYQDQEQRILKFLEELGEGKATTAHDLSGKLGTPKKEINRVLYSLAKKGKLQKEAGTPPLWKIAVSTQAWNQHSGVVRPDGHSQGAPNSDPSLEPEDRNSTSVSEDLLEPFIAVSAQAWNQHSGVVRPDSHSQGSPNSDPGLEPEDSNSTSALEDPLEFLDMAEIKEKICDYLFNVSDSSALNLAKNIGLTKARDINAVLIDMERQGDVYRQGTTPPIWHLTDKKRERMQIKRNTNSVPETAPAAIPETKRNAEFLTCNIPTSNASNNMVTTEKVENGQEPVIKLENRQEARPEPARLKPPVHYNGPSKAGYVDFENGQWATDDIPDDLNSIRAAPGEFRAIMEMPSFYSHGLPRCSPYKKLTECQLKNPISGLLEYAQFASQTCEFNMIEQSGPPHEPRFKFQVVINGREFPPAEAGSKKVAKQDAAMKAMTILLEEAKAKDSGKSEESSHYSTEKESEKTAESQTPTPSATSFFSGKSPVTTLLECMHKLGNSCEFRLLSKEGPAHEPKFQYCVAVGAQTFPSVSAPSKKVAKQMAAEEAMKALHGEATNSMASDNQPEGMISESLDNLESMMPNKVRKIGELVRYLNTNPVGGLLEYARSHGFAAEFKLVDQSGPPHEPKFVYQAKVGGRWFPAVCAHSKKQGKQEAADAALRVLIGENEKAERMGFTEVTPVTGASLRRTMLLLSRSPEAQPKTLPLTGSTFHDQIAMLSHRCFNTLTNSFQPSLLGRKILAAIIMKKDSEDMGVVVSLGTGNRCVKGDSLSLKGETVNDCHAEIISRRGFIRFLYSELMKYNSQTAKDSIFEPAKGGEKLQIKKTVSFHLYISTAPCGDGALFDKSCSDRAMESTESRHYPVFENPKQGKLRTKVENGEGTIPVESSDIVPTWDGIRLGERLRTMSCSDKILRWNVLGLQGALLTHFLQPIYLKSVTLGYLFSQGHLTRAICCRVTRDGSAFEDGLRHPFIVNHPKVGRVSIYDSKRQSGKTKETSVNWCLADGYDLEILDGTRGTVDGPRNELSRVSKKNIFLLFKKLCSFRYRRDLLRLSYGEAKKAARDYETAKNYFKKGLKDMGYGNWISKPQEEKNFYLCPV
UniProt Q13IY4, sequence (whole entry, looked up): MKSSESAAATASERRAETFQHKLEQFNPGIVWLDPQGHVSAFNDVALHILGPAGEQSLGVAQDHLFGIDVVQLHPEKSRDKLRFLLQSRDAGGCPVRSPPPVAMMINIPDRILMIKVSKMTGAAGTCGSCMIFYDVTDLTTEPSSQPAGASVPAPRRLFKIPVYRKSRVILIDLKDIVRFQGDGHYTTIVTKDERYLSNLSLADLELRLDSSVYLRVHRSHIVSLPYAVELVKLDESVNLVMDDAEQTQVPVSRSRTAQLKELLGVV
UniProt P0A7G6, sequence (whole entry, unmodified, looked up): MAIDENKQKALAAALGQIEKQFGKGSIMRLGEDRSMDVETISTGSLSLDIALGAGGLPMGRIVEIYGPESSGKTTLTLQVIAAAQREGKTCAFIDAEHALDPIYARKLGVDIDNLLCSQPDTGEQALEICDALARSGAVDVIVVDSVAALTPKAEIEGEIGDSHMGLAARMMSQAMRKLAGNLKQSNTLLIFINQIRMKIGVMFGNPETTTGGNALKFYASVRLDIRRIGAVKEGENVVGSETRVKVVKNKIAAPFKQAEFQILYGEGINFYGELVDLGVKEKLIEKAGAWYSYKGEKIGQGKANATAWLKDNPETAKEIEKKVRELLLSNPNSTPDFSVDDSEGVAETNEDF
UniProt P02647, sequence (whole entry, looked up): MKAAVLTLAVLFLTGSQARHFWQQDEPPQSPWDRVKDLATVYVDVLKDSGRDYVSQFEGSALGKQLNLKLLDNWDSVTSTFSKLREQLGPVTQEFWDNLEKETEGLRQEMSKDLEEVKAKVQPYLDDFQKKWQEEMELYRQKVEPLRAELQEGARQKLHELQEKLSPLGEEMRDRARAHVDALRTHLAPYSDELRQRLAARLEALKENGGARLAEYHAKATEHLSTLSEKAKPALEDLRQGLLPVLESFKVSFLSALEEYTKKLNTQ
UniProt P03023, sequence (whole entry, unmodified, looked up): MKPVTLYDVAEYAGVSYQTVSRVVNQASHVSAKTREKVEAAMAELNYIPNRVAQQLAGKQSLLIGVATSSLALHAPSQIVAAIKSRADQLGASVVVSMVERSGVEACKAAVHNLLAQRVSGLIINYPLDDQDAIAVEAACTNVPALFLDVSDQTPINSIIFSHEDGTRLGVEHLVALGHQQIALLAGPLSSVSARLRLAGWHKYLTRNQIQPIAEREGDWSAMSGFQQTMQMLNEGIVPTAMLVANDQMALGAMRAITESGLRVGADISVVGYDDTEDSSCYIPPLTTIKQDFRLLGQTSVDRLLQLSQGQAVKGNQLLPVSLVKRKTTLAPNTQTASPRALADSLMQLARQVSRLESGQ
UniProt Q4VGL6, sequence (whole entry, looked up): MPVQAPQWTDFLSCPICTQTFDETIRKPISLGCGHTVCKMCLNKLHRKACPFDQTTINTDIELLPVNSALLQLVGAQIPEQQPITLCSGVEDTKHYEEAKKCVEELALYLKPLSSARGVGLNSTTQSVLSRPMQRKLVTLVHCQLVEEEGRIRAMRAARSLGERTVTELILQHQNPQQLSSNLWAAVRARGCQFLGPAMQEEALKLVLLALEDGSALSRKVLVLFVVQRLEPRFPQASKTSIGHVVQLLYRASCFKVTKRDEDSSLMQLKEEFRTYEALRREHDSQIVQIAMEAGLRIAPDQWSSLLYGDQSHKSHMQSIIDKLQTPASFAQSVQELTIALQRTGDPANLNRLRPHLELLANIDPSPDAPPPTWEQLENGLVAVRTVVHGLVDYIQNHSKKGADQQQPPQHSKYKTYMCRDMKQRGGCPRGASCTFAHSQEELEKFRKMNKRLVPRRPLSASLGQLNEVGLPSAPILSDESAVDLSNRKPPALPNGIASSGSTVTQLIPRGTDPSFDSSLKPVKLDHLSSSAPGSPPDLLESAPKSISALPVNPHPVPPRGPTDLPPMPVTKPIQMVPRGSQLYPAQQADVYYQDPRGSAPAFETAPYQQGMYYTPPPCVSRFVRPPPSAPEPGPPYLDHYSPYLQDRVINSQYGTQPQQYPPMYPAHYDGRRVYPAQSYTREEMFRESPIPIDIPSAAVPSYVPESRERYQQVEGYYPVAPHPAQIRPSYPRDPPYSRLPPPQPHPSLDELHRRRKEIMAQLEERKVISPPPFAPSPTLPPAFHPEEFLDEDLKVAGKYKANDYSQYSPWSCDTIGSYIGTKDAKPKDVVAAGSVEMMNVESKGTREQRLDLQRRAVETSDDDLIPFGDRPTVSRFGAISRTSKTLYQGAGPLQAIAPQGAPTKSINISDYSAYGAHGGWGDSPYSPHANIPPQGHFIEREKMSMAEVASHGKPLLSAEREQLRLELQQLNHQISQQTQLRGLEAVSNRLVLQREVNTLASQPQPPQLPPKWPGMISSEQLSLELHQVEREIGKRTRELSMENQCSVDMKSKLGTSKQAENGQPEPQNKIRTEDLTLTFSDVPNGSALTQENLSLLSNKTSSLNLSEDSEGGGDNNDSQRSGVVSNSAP

| Substance | target | test | test system | setting | scale | quantity | result |
| --- | --- | --- | --- | --- | --- | --- | --- |
| GTGGTGTGTGGGTGTGTGTGT (dsDNA) | T1, Yku70/Yku80 (Saccharomyces cerevisiae) | cryo-EM | double-stranded DNA, one strand shown | – | – | binding | binds |
| CTATAGCAATGGTACGGTACTTCCCCTCGGCACGTTCTCAGTAGCGCTCGCTGGTCATCCCACACAAAAGTGCACGCTACTTTGCTAA (ssDNA; 5'-amino C6 linker) | APOA1 25-267 (Homo sapiens, UniProt P02647) | electrochemiluminescence aptasensor | single-stranded DNA | – | – | binding | binds |
| TGAGGCGTGTTTGCCAAAGGGCTATCTGTACTGCAAGGTT (dsDNA) | Transcription factor full length assumed (Rosa chinensis, UniProt A0A2P6P452) | EMSA | double-stranded DNA, one strand shown | – | – | binding | no binding |
| AACUACAGGACUAUUUGACAUCAUAAUAAA (ssRNA) | IGF2BP3 1-579 (Homo sapiens, UniProt O00425) | pull-down | RNA | – | – | binding | binds |
| ACACATTATGTTGTTTATTGTATGGCCAACATTTTGCCTAACA (dsDNA) | SPL13 1-401 (Vitis vinifera, UniProt F6GSW2) | EMSA | double-stranded DNA, one strand shown | – | – | binding | no binding |
| TTTTTTTTTTTTTTTTTTTTTTTTTTTTTTTTTTTTTTTTTTTTTTTTTTTTTTTTTTTTTTTTTTTTTT (ssDNA) | RAD51 full length assumed Y112E (Saccharomyces cerevisiae, UniProt P25454) | fluorescence anisotropy | single-stranded DNA | added: ATP | – | binding | no binding |
| TTTTTTTTTTTTTTTTTTTTTTTTTT (ssDNA; single-stranded) | PARP2 full length, 1-570 (Homo sapiens) | EMSA | single-stranded DNA | – | – | binding | no binding |
| CAAAATAAAAAAAAAAATAATCAAAAAAAAAAAAAATTTTCATTC (dsDNA) | gbp (Glycine max, UniProt Q8LKV1) | EMSA | double-stranded DNA, one strand shown | – | – | binding | no binding |
| GAGCTGCAAGTGGATATTTGGACCTCTTTGAGGTCTTCGTTGGAAACGGGATTTCCTCATATAATGTTACACAGAAGAATTCTCAGTAACTTATTTGTGGTGTGTGTATTCAACTCACAGAGGTGAACCTTCCTTCAGAAAGAGCAGATTTGAAACACTCTTTTTGTACCC (dsDNA) | CENPI 57-281 K243A/K263A/K270A/R279A/N280A (Homo sapiens, UniProt Q92674) | EMSA | double-stranded DNA, one strand shown | – | – | binding | no binding |
| TTACTCAACCGTAACCGATTTTGCCAGGTTACGCGG (dsDNA) | tnsD full length assumed (Escherichia coli, UniProt P13991) | EMSA | double-stranded DNA, one strand shown | – | – | binding | binds |
| ATGGATGGATGG (dsDNA) | Fibroin-modulator-binding protein-1 | ITC | double-stranded DNA, one strand shown | – | – | Kd | 1.68 ± 0.11 µM |
| AAAAAAAAAAAAAAAAAAAAAAAAAAAAAAAAAAAAAAAAAAAA (ssRNA) | Uncharacterized protein full length assumed (Arabidopsis thaliana, UniProt F4K402) | EMSA | RNA | – | – | binding | no binding |
| GGTTAGGGTTAG (ssDNA; 5'-phosphate) | POT1 1-299 H82A (Homo sapiens, UniProt Q9NUX5) | EMSA | single-stranded DNA | – | – | binding | binds |
| TTTTTGGGGAGGGTGGGGAGGGTGGGGAAGGTTTTT (G-quadruplex DNA (Homo sapiens); intramolecular G4) | NCL fragment (Homo sapiens) | DMS footprinting | folded DNA | KCl 140 mM | – | binding | binds |
| DNA 1 ACTTGCAAATTTGCAAATGCAT / DNA 2 TGATGCATTTGCAAATTTGCAA (dsDNA (Aquifex aeolicus); 5' 2-nt overhang) | Transcriptional regulator (NtrC family) 374-442 (Aquifex aeolicus, UniProt O66551) | X-ray crystallography | double-stranded DNA | – | – | binding | binds |
| DNA 1 AGATGTCCTAGTTTAGTTGGCTGATCGTTG / DNA 2 CAACGATCAGCCAAC (dsDNA; 5' 15 nt overhang; 3'-recessed) | tnsE full length assumed R388A (Escherichia coli, UniProt P05845) | EMSA | double-stranded DNA | – | – | binding | binds |
| AGATTTGCTCTCTGTCACAGGTGTCTCCGT (dsDNA) | Opaque endosperm 11 1-624 (Zea mays, UniProt A0A1D6EAS7) | EMSA | double-stranded DNA, one strand shown | added: Mg2+ | – | binding | no binding |

| Substance | target | test | test system | setting | scale | quantity | result |
| --- | --- | --- | --- | --- | --- | --- | --- |
| CTAGCTAGCTAG (dsDNA) | Fibroin-modulator-binding protein-1 | ITC | double-stranded DNA, one strand shown | – | – | Kd | 3.73 ± 0.18 µM |
| UGUGUGUGUGUGUGUG (ssRNA) | EIF4A1 1-406 (Homo sapiens, UniProt P60842) | fluorescence polarization | RNA | added: silvestrol 10 µM, ATP | – | binding | binds |
| AATTAGTCGCCACGTGTTTTACTTTA (dsDNA) | HY5 1-158 (Solanum lycopersicum, UniProt Q9SM50) | EMSA | double-stranded DNA, one strand shown | – | – | binding | binds |
| ACCAAGCGGTATGCGGAGCCGCCGCCGCCGCCG (dsDNA; blunt) | WT1 zinc finger domain 323-435 (Homo sapiens) | EMSA | double-stranded DNA, one strand shown | – | – | binding | no binding |
| GTGTGGTTAATATGGTGTGGTTAATATGGTGTGGTTAATATGGTGTGGTTAATATG (ssDNA) | RNJ 604-911 (Arabidopsis thaliana, UniProt Q84W56) | EMSA | single-stranded DNA | – | – | binding | no binding |
| ATAAGTCACATGATGATATTTGATTTTATTATATTTTTAAAAAAAGTAAAAAATAAAAAGTAGTTTATTTTTAAAAAATAAAATTTAAAATATTTCACAAAATGATTTCCGAA (dsDNA) | CENP-I 1-229 K189E (Thermochaetoides thermophila, UniProt G0SFF7) | EMSA | double-stranded DNA, one strand shown | – | – | binding | binds |
| TGTTGTGTGGAATTGTGAGCGGATAACAATTTCACACAGG (dsDNA (Escherichia coli); blunt) | lacI full length assumed N125C/D149C (Escherichia coli, UniProt P03023) | filter binding | double-stranded DNA, one strand shown | – | – | binding | binds |
| AAGGTGTGTGGGTGTGGTAATC (dsDNA) | RAP1/Yku70/Yku80 (Saccharomyces cerevisiae) | EMSA | double-stranded DNA, one strand shown | – | – | binding | binds |
| AATGTAGGCTGAGCCGCAGAGACCACCAAT (dsDNA) | ERF-D2 full length assumed (Solanum lycopersicum, UniProt A0A3Q7JX06) | EMSA | double-stranded DNA, one strand shown | – | – | binding | no binding |
| VMRLQSETSV | human MAGI1-2/6 PDZ construct (MBP fusion) | automated holdup | peptide, crude extract | concentration not given, corrected by standard peak, unit not given | reference: biotin control resin, higher = stronger binding | binding intensity | 0.473 |
| CGCGCGCGCGCG (dsRNA; blunt self-complementary duplex) | ADAR 133-199 (Homo sapiens, UniProt P55265) | AUC sedimentation velocity | double-stranded RNA, one strand shown | – | – | binding | binds |
| TTTATTTT (ssDNA) | Rc3h1 411-454 (Mus musculus, UniProt Q4VGL6) | NMR | single-stranded DNA | – | – | binding | binds |
| TCCACGATGTAGGATCCACATGAGCGCTCCTGTTACCCTG (ssDNA) | ALB 25-609 (Homo sapiens, UniProt P02768) | capillary electrophoresis | single-stranded DNA | – | – | binding | binds |
| DNA 1 TGGGTGGGTAGGGTGGGTAGGGGAGGAT / DNA 2 ATCCTCCCCTA (DNA; intramolecular parallel G4, 5' overhang, 11-bp duplex) | REV1 330-833 M407L (Homo sapiens, UniProt Q9UBZ9) | FP | folded DNA | KCl 100 mM | – | Kd | 0.0053 ± 0.0018 µM |
| GGTGGTGGTGGTGGTGGT (ssDNA) | recA full length assumed F204I (Escherichia coli, UniProt P0A7G6) | fluorescence anisotropy | single-stranded DNA | added: ATPγS | – | binding | binds |
| TCGGGTTTCATGTACGTT (dsDNA; blunt) | rcoM2 full length assumed (Paraburkholderia xenovorans, UniProt Q13IY4) | fluorescence anisotropy | double-stranded DNA, one strand shown | Fe(II)-CO | – | binding | no binding |
| CTATTCATCTATCATAAATTAATTTCTCGCGGGGGTAAGAATAACTAATCACTGAACAAA (dsDNA) | LHY full length assumed (Arabidopsis thaliana, UniProt Q6R0H1) | EMSA | double-stranded DNA, one strand shown | – | – | binding | no binding |

Repeated from above:
| Substance | target | test | test system | setting | scale | quantity | result |
| --- | --- | --- | --- | --- | --- | --- | --- |
| GTGGTGTGTGGGTGTGTGTGT (dsDNA) | T1, Yku70/Yku80 (Saccharomyces cerevisiae) | cryo-EM | double-stranded DNA, one strand shown | – | – | binding | binds |
| CTATAGCAATGGTACGGTACTTCCCCTCGGCACGTTCTCAGTAGCGCTCGCTGGTCATCCCACACAAAAGTGCACGCTACTTTGCTAA (ssDNA; 5'-amino C6 linker) | APOA1 25-267 (Homo sapiens, UniProt P02647) | electrochemiluminescence aptasensor | single-stranded DNA | – | – | binding | binds |
| TGAGGCGTGTTTGCCAAAGGGCTATCTGTACTGCAAGGTT (dsDNA) | Transcription factor full length assumed (Rosa chinensis, UniProt A0A2P6P452) | EMSA | double-stranded DNA, one strand shown | – | – | binding | no binding |
| AACUACAGGACUAUUUGACAUCAUAAUAAA (ssRNA) | IGF2BP3 1-579 (Homo sapiens, UniProt O00425) | pull-down | RNA | – | – | binding | binds |
| ACACATTATGTTGTTTATTGTATGGCCAACATTTTGCCTAACA (dsDNA) | SPL13 1-401 (Vitis vinifera, UniProt F6GSW2) | EMSA | double-stranded DNA, one strand shown | – | – | binding | no binding |
